Assay results of several laboratories.
Each numbered part is a random draw from the data of one study; scales do not carry over between parts.

Sample 1
Target: Sal-like protein 4, full length isoform A (SALL4, Homo sapiens, UniProt Q9UJQ4, residues 1-1053)
Chain of UniProt Q9UJQ4 (whole entry, looked up): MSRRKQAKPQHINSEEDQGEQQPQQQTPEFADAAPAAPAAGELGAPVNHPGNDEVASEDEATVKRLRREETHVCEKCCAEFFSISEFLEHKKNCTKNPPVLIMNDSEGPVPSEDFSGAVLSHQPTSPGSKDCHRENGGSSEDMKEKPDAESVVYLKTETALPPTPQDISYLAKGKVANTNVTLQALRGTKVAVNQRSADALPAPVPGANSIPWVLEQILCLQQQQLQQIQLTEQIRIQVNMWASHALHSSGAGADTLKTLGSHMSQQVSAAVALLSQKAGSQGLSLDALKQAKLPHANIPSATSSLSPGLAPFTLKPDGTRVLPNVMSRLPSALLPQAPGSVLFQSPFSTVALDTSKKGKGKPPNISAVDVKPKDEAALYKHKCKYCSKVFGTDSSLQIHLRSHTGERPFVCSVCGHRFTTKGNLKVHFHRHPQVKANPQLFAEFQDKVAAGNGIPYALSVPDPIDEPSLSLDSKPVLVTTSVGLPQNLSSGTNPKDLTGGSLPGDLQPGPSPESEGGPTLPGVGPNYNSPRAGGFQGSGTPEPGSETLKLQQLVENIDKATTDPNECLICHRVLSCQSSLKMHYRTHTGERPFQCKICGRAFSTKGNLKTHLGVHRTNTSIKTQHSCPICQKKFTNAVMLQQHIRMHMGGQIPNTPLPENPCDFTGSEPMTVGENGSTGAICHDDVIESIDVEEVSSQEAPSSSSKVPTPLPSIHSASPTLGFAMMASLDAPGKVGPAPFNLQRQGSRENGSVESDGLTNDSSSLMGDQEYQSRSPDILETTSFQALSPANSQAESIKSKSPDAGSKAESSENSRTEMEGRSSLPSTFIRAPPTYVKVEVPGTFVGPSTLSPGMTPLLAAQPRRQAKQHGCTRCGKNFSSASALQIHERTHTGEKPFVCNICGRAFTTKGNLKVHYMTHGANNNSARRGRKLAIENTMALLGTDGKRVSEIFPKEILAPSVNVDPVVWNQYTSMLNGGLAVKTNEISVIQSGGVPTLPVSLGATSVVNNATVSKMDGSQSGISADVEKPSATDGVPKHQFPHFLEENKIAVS
Technique: universal PBM
Molecule type: double-stranded DNA, one strand shown
Matrix: in vitro
Tested at: 600 nM
Notes: 8-mer, flanks averaged, mean of replicates
Direction: higher = stronger binding
Strand	E-score
CCATTCGC	-0.279
AACAGATC	-0.00281
ATTGTCTA	0.201
CGGCAAAC	-0.206
AGAATACT	0.222
AACAATGA	0.204
CCCTCCTC	-0.258
CGCTTGGA	-0.166
ACAACGAC	-0.0238
AATTGCCA	0.203
CGCCGACC	-0.379
CTCTCCCC	-0.298
ACGTCAGC	-0.127
CGATCCTC	-0.192
ATCCCTAG	-0.0426
CGGAACCG	-0.329
CCTGGGGC	-0.449
GGAACCAC	-0.272
CGAAATAC	0.156
AACCCGTG	-0.294
GGATCGAA	-0.0707
AATAGTTA	0.277
GCTTCAAA	0.0986
GCGGCCAC	-0.347
ATGAACGA	0.179

Sample 2
Target: Interferon regulatory factor 7, full length, phosphomimetic (IRF7, Homo sapiens, UniProt Q92985, residues 1-503, S471D/S472D/S475D/S476D/S477D/S483D/S484D/S487D)
Technique: protein-binding microarray
Molecule type: double-stranded DNA, one strand shown
Matrix: in vitro
Tested at: 2200 nM top
Notes: 60-bp whole probe
With: salmon DNA 0.4 mg/ml
Relative to: random background probes
Direction: higher = stronger binding
Shared flanks, not repeated: GCCTAGCAC … GTCTTGATTCGCTTGACGCTGCTG
Construct (chain): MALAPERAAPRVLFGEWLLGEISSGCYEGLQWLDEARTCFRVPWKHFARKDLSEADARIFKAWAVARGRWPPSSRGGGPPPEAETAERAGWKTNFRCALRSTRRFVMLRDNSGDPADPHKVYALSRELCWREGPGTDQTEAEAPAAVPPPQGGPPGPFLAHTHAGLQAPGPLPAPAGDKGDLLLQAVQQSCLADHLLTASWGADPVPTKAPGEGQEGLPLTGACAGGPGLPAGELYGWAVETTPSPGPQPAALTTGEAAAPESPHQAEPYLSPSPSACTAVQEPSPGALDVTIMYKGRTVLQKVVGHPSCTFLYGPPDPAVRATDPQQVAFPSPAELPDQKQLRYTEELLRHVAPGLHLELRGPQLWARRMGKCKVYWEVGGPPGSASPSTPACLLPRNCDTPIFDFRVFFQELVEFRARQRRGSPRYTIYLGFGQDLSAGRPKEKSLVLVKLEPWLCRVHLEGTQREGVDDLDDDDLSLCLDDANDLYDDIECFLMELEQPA
Strand	fitted relative affinity
TCATTTCAGTTTCTCTTACTGTGCTAG	4.18 z-score
GACGAACAGGGGTATCGAGACGTGCTA	-0.00881 z-score
GTCGGTTTCGGTTCCGGGACGTGCTAG	12.9 z-score
TTTGGACTGGGTTTCGGTTAGTGCTAG	4.13 z-score
TCAGATTTCGATTACAAACTGTGCTAG	2.67 z-score
TTAGGTTTCCATCTCCTTTAGTGCTAG	3.09 z-score
GATGATTTCAGTATCGAGACGTGCTAG	0.742 z-score
GACGGTATCGAGACTGGGGACGTGCTA	-0.359 z-score
TTAGATATCAGGCTCGATTAGTGCTAG	-0.121 z-score
TCTTTTTTTCTTTTATTAGTGTGCTAG	3.02 z-score
TTAGGTTTCCTTATCCGTTAGTGCTAG	1.96 z-score
CTGATCCTTCATTTGAAAGAGTGCTAG	1.14 z-score
TCAATTCTCAACCCTGGTACTGTGCTA	0.761 z-score
GGCGGTTTCGGTTCCGGGACGTGCTAG	11.8 z-score
TTAGATTTCAGTTCCGATTTGTGCTAG	3.21 z-score
TTAGGACTGCACTATCGGTTAGTGCTA	0.126 z-score
GGCTGTTTGATCTTGATCCTGTGCTAG	0.454 z-score
GACGGTTTCGGGTTACGGGACGTGCTA	11.9 z-score
GACGATTTCCTTCTCCTGACGTGCTAG	2.17 z-score
TGTGGTCTGTTTCTGATATGGTGCTAG	1.36 z-score
GACGCTATCGGTCTCGGGACGTGCTAG	0.387 z-score
GACGATATCGGTCTCGAGACGTGCTAG	0.414 z-score
TTAGGGTTCGACTTTCGGTTAGTGCTA	6.03 z-score
GACGGTCTCCTTATCCTGATGTGCTAG	1.13 z-score
ATCATTTTTGCTTACGATGCGTGCTAG	1.81 z-score

Sample 3
Target: RNA binding protein fox-1 homolog 2, RRM domain, GST-SBP tag (RBFOX2, Homo sapiens, UniProt O43251-10, residues 100-194)
Technique: RNA Bind-n-Seq
Molecule type: RNA
Matrix: in vitro
Tested at: 365 nM
Notes: natural RNA segment, single round, ends assumed
Relative to: no-protein control
Direction: higher = stronger binding
Shared flanks, not repeated: GGGAGUUCUACAGUCCGACGAUC … UGGAAUUCUCGGGUGCCAA
Target sequence (chain): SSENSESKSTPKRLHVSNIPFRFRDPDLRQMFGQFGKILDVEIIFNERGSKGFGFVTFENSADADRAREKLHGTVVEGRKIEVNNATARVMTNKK
Strand	RBNS enrichment (R)
AUGAAUUUUAUAUUCCGUGAAUGUAUAUUGUCUUGUAAUGUUGCAUAAUGUUCACUUUUUAUAGUGUGUCCUUUAUUCUAAACAGUAAAGUGGUUUUAUUUCUAUCACAC	0.994
UGAGGCCAUCUGAGCCUCCAGACCAGACCCCAAACCAGCCCUUGAGUCUGUCACACUCUCUUGGGCCAGCCCCAGCACCUCAUGCAGAGGGUGGGGUACUGGAGUUAGAU	0.242
GUGGAGACGUUUCCAGAUCAGCCCAAGUUUACUAUAGAGACUGGCCCAGGCACUGAAUGUCUAGGACAUGCUGUGGAUGAAGAUAAAGAUGGUGGAAUAGGUUUUAUCAC	0.541
GAAGACACAAAGUAUGGGGGAAGACAGCAAUCAAAACUAACUUUUUGUAGAUAGCCAUUUCAUUUCUUUAAACUGUUUCAACGCCAAUAUGUAUUCUACAAAAGAGAAUG	0.618
CUCCUCACGUCAGGAGCAAGCAGCCGUGGACCCCUAAGCCGAGCUGGUGGAAGGCCCCUCCCCAUCGCCAGCCGGGCCCUCAUGCUGACCUUGCAAAUUCAGCCGCUGCU	0.251
AAAGCCAGGGUGAUGCUCAGACAGUGUGCCAGCCAAAAUGACUUGGGGGAGGGGAGCCGCUUCCCCACUGUUGCUCUUUUUUAAACAAAUUGAGUUCCUUUUUUUAAGAU	0.682
UCCUCUCUGUUGCGUGUGUCGAGAGACACUGACAGUUUCGUGUAACUCCCAGGAAUACUGUACCUGUGUUUGGAGGAGCUUUCUCAGAGAAAUAGCAAGCAUGUCCUGUU	1.62
ACAGAACUGCCCAAUCCAGGGGCUCUGGGAUAUGGCUGCCCGGGAUUACAGAAAGACACGGCACUGCCGUGCACACCCAUGCUGCUUAGAAGCCUAAGCCUCUGCCUUCA	0.2
CGUCUGUCUCUUGGCUAUUUUAACCUAAAAUAACCAGUCUAGUUCUAUCCCCUCUUCUUGUAAAGCACAAGCCGGGGGCCGUGAGUGUAUUACAACCCAACGGCGGCCCA	0.192
AAUCGAGCUGUGGCUGAAGACCCGAGGCUCAGUUAGCAACCUCUGUUGUAGCUGUCAACCCAUUGGUUGUCUUUAGAGAGUUAAUGUUGAAACAAGGAACUCUUGGUCAG	0.291
AGGUCUAGGUGUGUUUAAAUUUCUGAAGAUCAUUUUUCAUUAUAACAUUCAGGCCAGACACUUGAAAGUGACUGUUUGUUCUUAUAGUGUCCCCAAGUCUGCUAAUUAAG	0.215
UUCGUUAUUGCCUUUUUUGAGAUGUAUGUAUCUGUAUCUACCUAUAUCUAUAUGUGUGUAUACAUAUAUAAUAUAUACACACAGAUACAAGUGUACACACACACACCACA	0.352

Sample 4
Target: Ras GTPase-activating protein-binding protein 1, full length (G3BP1, Homo sapiens, UniProt Q13283)
Chain of UniProt Q13283 (whole entry, looked up): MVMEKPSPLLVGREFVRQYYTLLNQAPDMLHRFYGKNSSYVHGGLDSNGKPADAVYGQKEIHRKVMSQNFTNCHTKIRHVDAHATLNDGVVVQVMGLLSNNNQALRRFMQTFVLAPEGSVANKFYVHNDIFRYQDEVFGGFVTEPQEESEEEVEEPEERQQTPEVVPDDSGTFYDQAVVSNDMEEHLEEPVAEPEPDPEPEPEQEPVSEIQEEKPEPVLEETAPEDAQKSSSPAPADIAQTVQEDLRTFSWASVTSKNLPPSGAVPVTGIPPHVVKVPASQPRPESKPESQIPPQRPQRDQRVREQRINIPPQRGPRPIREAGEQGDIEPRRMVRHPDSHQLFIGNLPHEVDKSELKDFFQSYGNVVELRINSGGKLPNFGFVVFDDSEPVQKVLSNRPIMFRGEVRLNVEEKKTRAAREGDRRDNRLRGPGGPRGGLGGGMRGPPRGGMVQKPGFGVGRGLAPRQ
Technique: RNA Bind-n-Seq
Molecule type: RNA
Matrix: in vitro
Tested at: 200 nM
Notes: whole 134-nt RNA, ends assumed
With: 150 mM LiCl
Relative to: input library
Direction: higher = stronger binding
All molecules: 7-deaza-guanosine replaces G
Shared flanks, not repeated: GGGAGUUCUACAGUCCGACGAUC … UGGAAUUCUCGGGUGUCAAGG
Strand	log2 enrichment
CACAGACAACACGCACCCACACAGACACAGAGGGAAGGGGUUGGGAUGGGGACAGGGUGCGCAGCAGGGCGGGGUAGGACCCCAGCCCCU	-0.661
UCCUGUGCUACACAUCGUAUGUACCGAAUCGGGGAAAAAGGGGUUUUUGGGGAAAGGGGAAAGUAUUAUGUUACGCCGUUCGGAUCUGCA	-0.119
ACCAUGCAGGUGGGCAUCUUUGGGAAGUGGGGCAAGGGGGGGAUAGGGAGGGGGGUAACACUUUGGGCACAGGUGGUCCCAGGUCGUUUC	-0.0501
UUGUUUAGCAAUCAAGGAGACCGCGAAGGCGUACAUUCCCGGGUGUUGCUUCCAGGAGAAACCCUGAACGGAGAGCUCGUCCUCUUACCA	0.208
UGUACUCGGAAGUUUCACUUACCAUCGACCACUCUCUGAUUCCGGAGGAGAGGCUCUCGCCCACCCCAUCCAUGCAGGAUGGGCUCGACC	1.12
UCAAGUCCUGUGCUACACAUCGUAUGUACCGAAUCGGCCCGGGGCCCGGCCCGGGAAAGUAUUAUGUUACGCCGUUCGGAUCUGCACUUC	-0.00591
GCAGGAAGUAAAAACAAAUGGAAAUGCUUCGGAUAGUGGCAGGGGUGGGGAAAGCUAAGGAAAGGGUGGGAUGGGAGUGGGUAAAGAGUU	0.312
AGUCCUGUGCUACACAUCGUAUGUACCGAAUCGGGAAAGGGAAAAAAAGGGUUUGGGAAAGUAUUAUGUUACGCCGUUCGGAUCUGCACU	-2.35
UGGCCCUGGUGGCAUGCGGGGAGGAAGAGGUGGCCUCAUGGAUCGUGGUGGUCCCGGUGGAAUGUUCAGAGGUGGCCGUUGUGGAGACAG	-0.376
GCAGGAAGCAAAAACAAAUGGAAAUGCUUCGGAUAGUGGCAGGGGUGGGGGUUGCUAAGGAAAGGGUGGGAUGGGAGUGGGUAAAGAGUU	0.176
UGGGAGGUGGAUUUUGUUUAUUUUUUUAGCUCAUUUCCUGGGGUGGGAAUUUUUUUUUAAUAUGUGUCAUGAAUAAAGUUGUUUUUGAAA	-0.233

Some of these lines once more (sample 1):
Strand	E-score
GCGGCCAC	-0.347
ATTGTCTA	0.201
CGATCCTC	-0.192
CCCTCCTC	-0.258
GGAACCAC	-0.272
AATAGTTA	0.277
GGATCGAA	-0.0707
AACCCGTG	-0.294
CGAAATAC	0.156
ATGAACGA	0.179
